Measurements of several laboratories.
Parts stem from different laboratories: compare values within a part only.
Chain of UniProt O75676 (whole entry, looked up): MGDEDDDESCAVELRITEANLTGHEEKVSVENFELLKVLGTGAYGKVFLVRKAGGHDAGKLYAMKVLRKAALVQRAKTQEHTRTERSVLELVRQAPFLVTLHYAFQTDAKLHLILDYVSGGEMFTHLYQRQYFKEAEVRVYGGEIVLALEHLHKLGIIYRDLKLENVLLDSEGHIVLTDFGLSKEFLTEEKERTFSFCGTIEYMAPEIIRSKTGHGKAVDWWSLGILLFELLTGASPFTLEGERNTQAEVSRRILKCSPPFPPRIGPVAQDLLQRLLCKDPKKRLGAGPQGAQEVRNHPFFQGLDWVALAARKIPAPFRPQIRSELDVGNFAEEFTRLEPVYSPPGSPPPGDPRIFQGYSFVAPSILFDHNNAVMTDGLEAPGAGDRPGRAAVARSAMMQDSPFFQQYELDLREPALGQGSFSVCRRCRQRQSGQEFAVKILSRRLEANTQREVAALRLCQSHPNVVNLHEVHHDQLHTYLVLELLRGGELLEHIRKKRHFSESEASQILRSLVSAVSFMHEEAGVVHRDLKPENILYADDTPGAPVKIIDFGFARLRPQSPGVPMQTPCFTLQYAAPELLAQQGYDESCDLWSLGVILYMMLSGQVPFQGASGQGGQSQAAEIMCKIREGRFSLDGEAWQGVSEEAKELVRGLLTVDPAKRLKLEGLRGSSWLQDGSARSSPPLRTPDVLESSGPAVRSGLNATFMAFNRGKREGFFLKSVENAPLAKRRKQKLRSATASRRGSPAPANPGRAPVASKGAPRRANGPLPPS

Sample 1
Target: Ras GTPase-activating protein-binding protein 1, RRM domain (G3BP1, Homo sapiens, UniProt Q13283)
Chain of UniProt Q13283 (whole entry, looked up): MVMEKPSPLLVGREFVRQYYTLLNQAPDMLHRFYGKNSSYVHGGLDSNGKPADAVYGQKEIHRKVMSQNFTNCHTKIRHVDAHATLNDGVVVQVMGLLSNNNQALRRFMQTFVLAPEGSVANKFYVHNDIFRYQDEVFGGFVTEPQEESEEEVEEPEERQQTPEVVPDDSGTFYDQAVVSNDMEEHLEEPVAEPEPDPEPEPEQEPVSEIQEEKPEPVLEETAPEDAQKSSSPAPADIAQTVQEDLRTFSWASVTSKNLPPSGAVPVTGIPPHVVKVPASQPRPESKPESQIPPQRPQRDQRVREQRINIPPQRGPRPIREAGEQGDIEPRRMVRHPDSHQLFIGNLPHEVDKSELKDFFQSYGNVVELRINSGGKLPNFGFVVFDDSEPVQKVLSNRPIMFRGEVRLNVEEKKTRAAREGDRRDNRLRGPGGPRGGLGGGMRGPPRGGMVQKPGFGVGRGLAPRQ
Technique: RNA Bind-n-Seq
Form: RNA
Sample: in vitro
Concentration: 1 µM
Notes: whole 134-nt RNA, ends assumed
With: 150 mM KCl
Baseline: input library
Direction: higher = stronger binding
| Strand | log2 enrichment |
| --- | --- |
| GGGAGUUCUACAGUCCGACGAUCCCUCAAGUCCUGUGCUACACAUCGUAUGUACCGAAUCGGGGUGGGUGGGUGGGAAAGUAUUAUGUUACGCCGUUCGGAUCUGCACUUCCAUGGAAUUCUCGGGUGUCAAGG | 0.802 |
| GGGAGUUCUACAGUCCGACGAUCAAGUCCUGUGCUACACAUCGUAUGUACCGAAUCGGGCCCGGGGCCCGGGGCCCGGGAAAGUAUUAUGUUACGCCGUUCGGAUCUGCACUUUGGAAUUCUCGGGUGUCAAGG | -1.26 |
| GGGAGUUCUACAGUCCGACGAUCCUGUGCUACACAUCGUAUGUACCGAAUCGGGGUUUUUUUGGGGAAAAAAAGGGGAAAGGGGAAAGUAUUAUGUUACGCCGUUCGGAUCUGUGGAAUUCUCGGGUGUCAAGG | 0.266 |
| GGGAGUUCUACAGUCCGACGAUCCACAGACAACACGCACCCACACAGACACAGAGCGAAGGGGUUGGGAUGGGGACAGGGUGCACAGCAGGGCGGGGUAGGACCCCAGCCCCUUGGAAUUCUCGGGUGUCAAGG | -0.0855 |
| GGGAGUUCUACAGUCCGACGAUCCCUGUGCUACACAUCGUAUGUACCGAAUCGGGUUUUUUGGGUUUUUUGGGGUUUUUUGGGGAAAGUAUUAUGUUACGCCGUUCGGAUCUGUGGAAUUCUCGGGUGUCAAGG | -0.154 |
| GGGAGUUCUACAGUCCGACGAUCCCUGUGCUACACAUCGUAUGUACCGAAUCGGGAAAAAAGGGGAAAAAAGGGAAAAAAGGGGAAAGUAUUAUGUUACGCCGUUCGGAUCUGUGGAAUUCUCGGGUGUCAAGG | -0.0396 |
| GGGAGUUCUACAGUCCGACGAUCUCAAGUCCUGUGCUACACAUCGUAUGUACCGAAUCGGGGAAGGGAAGGAAGGGGAAAGUAUUAUGUUACGCCGUUCGGAUCUGCACUUCCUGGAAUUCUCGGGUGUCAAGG | 0.35 |
| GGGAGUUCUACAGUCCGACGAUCCAAGUCCUGUGCUACACAUCGUAUGUACCGAAUCGGUUUGGAAAGGUUUUUUUGGAAAGUAUUAUGUUACGCCGUUCGGAUCUGCACUUCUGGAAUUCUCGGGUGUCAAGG | -0.282 |

Sample 2
Target: Probable WRKY transcription factor 11, DNA-binding domain (WRKY11, Arabidopsis thaliana, UniProt Q9SV15, residues 228-325)
Technique: DNA-protein interaction ELISA
Form: double-stranded DNA, one strand shown
Sample: in vitro, bacterial lysate
Concentration: not given
Notes: whole dsDNA probe, crude lysate protein
Baseline: highest signal in screen
Direction: higher = stronger binding
Target sequence (chain): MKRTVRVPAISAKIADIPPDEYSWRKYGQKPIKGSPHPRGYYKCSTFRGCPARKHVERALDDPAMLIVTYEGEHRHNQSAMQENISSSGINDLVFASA
| Strand | relative absorbance |
| --- | --- |
| AAAAAATATCATTGTTACCGTTGCTAAAAA | 10.9 % of maximum |
| AAAAAAGGACGTCTTCGGTATGAGTGAAAA | 20.2 % of maximum |
| AAAAAAGTTCGTGCTTAACCCAGTTTAAAA | 17.9 % of maximum |
| AAAAAAAAGTGCCAACGTTCAAGAAAAA | 8.93 % of maximum |
| AAAAAAATCTTTGCGTCGAGATTCTTAAAA | 15.6 % of maximum |
| AAAAAAGGGTTTGTCGGGAATTGCCGAAAA | 15 % of maximum |
| AAAAAATGCCCATGTGCACCCGTACGAAAA | 14.4 % of maximum |
| AAAAAATGAGAGAATTTCCGGTTCAGAAAA | 15.6 % of maximum |

Sample 3
Target: POU, POU domain (Salpingoeca helianthica)
Technique: Spec-seq
Form: double-stranded DNA, one strand shown
Sample: in vitro
Concentration: not given
Notes: whole probe, mean of replicates
Baseline: not given
Direction: lower = stronger binding
Shared flanks, not repeated: GAGTCGTCTCGTCAGCAC … CCGTAGAGCACTCAGGTC
Target sequence (chain): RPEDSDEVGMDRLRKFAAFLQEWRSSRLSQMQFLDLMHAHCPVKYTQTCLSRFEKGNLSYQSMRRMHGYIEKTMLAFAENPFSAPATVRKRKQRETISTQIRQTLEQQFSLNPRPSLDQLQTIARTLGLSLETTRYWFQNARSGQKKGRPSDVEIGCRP
| Strand | relative binding energy |
| --- | --- |
| ATGCAGCC | 1.35 ln ratio |
| TGCCTAAT | 0.764 ln ratio |
| ATAGCCAT | 1.39 ln ratio |
| ATAGGAAT | 1.52 ln ratio |
| ATGCCGCC | 1.3 ln ratio |
| ATGCATCT | 0.991 ln ratio |
| ATACATAT | 1.13 ln ratio |
| ATTATTAT | -0.266 ln ratio |

Other studies, line by line
| SMILES | target | assay | conditions | measurement | result |
| --- | --- | --- | --- | --- | --- |
| CNC(=O)Nc1ccc2c(c1)[C@@]1(CC2)OC(=O)N(CC(=O)N(Cc2ccc(F)cc2)[C@@H](C)C(F)(F)F)C1=O | Ribosomal protein S6 kinase alpha-4, C-terminal kinase domain (RPS6KA4, Homo sapiens, UniProt O75676) | cell-free assay, competition with immobilised ligand | 1 µM | remaining binding | 88% |

Some of these lines once more (sample 3):
| Strand | relative binding energy |
| --- | --- |
| ATGCCGCC | 1.3 ln ratio |
| ATGCAGCC | 1.35 ln ratio |
